Measured values from different studies.
Lines come from different studies, so protocols differ. “And” joins repeats or separate records; there may be more than shown. ± gives the spread as reported.
ERBB2: Receptor tyrosine-protein kinase erbB-2 (ERBB2, Homo sapiens, UniProt P04626)
Sequence of UniProt P23458 (whole entry, looked up): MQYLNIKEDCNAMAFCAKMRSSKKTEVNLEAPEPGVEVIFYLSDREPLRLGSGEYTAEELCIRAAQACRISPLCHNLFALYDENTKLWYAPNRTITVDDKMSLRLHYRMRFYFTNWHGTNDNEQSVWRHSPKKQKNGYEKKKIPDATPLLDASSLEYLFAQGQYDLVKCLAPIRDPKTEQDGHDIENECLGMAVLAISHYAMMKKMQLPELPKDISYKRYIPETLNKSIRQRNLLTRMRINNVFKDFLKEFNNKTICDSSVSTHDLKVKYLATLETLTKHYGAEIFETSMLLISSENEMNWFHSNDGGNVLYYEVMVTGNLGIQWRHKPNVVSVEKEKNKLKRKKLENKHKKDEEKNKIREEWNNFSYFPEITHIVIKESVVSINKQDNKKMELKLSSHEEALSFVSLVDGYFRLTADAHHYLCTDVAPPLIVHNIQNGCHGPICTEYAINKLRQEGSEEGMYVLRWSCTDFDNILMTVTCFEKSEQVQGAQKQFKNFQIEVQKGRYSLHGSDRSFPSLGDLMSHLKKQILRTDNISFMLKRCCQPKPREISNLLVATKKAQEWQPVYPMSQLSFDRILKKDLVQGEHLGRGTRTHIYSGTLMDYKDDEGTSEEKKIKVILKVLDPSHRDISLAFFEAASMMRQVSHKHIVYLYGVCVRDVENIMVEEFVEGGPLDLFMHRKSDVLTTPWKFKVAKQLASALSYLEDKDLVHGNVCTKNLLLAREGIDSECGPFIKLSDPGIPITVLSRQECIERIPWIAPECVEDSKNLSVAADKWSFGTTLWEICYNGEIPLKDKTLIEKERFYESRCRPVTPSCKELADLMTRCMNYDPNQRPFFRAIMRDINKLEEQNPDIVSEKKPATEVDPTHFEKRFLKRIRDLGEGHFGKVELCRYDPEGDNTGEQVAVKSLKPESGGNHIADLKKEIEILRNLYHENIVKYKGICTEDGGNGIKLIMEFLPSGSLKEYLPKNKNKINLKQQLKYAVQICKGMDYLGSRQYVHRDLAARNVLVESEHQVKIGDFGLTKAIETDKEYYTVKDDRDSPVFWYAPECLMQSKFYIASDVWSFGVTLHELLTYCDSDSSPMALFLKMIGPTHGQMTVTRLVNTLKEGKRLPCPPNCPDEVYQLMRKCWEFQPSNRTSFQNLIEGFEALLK
Sequence of UniProt P50552 (whole entry, looked up): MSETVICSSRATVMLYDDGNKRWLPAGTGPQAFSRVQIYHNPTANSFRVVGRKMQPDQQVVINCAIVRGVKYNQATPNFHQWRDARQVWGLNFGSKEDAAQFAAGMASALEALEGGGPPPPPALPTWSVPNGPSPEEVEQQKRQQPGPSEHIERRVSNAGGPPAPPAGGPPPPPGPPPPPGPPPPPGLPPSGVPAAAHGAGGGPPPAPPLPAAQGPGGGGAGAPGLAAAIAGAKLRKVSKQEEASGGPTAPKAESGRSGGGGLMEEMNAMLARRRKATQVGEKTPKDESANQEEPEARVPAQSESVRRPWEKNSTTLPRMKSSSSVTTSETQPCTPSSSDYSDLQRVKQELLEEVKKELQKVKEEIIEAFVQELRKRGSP
Sequence of UniProt P00811 (whole entry, looked up): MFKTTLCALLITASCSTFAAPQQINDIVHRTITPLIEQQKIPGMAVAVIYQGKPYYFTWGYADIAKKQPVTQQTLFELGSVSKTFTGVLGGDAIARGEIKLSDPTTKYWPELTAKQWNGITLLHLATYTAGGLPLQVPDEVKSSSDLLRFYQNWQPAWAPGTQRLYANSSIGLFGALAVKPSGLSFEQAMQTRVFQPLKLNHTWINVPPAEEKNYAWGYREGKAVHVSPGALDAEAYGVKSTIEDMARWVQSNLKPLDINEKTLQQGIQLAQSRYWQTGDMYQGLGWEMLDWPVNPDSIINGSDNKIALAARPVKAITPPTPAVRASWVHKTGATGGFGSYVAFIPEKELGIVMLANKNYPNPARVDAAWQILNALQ
Sequence of UniProt P08510 (whole entry, unmodified, looked up): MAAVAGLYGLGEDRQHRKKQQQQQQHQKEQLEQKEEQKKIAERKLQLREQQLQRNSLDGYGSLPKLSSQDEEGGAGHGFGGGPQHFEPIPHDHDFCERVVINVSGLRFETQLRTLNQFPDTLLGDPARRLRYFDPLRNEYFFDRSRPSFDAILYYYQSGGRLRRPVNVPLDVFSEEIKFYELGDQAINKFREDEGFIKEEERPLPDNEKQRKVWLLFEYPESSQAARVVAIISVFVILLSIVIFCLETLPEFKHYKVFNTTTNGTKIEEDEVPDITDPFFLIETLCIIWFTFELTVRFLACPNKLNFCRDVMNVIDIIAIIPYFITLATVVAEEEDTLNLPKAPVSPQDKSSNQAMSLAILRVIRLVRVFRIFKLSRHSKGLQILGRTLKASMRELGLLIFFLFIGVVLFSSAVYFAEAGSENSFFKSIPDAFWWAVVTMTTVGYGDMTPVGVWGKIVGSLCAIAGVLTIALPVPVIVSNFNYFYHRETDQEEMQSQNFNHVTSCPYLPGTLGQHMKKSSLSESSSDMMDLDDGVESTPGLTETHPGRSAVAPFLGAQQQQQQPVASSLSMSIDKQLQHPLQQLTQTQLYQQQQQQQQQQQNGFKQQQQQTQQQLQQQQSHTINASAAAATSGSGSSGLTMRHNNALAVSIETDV
Sequence of UniProt P49137 (whole entry, looked up): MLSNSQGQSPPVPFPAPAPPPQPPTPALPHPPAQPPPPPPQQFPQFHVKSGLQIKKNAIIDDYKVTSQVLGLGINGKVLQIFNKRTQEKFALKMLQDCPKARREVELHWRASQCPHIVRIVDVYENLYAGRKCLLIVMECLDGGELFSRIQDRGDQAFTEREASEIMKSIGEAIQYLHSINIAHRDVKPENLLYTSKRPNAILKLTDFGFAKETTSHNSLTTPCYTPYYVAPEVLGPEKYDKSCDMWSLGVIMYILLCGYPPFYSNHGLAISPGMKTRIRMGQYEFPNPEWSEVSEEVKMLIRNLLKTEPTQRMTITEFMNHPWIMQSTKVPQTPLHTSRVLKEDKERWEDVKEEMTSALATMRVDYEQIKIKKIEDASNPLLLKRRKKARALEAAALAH
Sequence of UniProt P33913 (whole entry, unmodified, looked up): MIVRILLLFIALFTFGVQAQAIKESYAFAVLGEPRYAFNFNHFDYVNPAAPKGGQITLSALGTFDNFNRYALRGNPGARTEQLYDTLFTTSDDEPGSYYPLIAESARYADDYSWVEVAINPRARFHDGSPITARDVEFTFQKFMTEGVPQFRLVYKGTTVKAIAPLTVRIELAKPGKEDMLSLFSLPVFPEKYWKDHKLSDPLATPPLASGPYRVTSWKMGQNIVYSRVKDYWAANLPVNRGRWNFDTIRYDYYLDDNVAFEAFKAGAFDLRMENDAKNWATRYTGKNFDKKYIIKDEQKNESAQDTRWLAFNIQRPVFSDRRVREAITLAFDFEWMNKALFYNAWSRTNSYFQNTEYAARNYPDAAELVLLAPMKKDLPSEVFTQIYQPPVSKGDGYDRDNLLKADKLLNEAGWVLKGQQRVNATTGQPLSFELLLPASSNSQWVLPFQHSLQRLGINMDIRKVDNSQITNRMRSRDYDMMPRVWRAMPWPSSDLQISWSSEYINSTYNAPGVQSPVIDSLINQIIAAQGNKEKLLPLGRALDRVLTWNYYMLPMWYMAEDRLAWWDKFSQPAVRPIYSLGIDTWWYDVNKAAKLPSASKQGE
Sequence of UniProt O43639 (whole entry, looked up): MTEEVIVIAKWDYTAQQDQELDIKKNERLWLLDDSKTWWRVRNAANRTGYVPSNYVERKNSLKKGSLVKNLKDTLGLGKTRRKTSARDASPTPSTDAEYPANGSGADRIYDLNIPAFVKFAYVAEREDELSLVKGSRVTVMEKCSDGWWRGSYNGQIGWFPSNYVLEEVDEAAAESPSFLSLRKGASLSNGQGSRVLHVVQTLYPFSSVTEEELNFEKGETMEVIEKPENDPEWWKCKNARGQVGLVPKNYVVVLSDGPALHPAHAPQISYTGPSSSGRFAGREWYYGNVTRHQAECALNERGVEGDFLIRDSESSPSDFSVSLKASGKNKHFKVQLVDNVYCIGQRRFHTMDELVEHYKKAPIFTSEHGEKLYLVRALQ

SMILES | tested on | test | system | setting | quantity | result
CC(C)[C@H]1NC(=O)C[C@H]2/C=C/CCSSC[C@@H](NC1=O)C(=O)N[C@H](Cc1cccc3ccccc13)C(=O)NCC(=O)O2 | MAPKAPK2 (Homo sapiens, UniProt P49137) | enzyme activity, inhibitor |  | 10 µM | inhibition | 5.2%
O=C(N[C@@H]1c2ccccc2C[C@H]1N1CCCC1)c1ccc(-c2ccnc3[nH]ccc23)nc1 | Tyrosine-protein kinase JAK1, JH1 (JAK1, Homo sapiens, UniProt P23458) | binding, competition with immobilised ligand |  |  | Kd | 0.79 µM
CSCC[C@@H](N)C(=O)N[C@H](C)C(=O)N[C@H](C)C(=O)N[C@@H](C(=O)N[C@H](C)C(=O)NCC(=O)N[C@H](CC(C)C)C(=O)N[C@H](Cc1ccc(O)cc1)C(=O)NCC(=O)N[C@H](CC(C)C)C(=O)NCC(=O)N[C@H](CCC(=O)O)C(=O)N[C@H](CC(=O)O)C(=O)N[C@H](CCCNC(=N)N)C(=O)N[C@H](CCC(N)=O)C(=O)N[C@H](Cc1c[nH]cn1)C(=O)N[C@H](CCCNC(=N)N)C(=O)N[C@H](CCCCN)C(=O)N[C@H](CCCCN)C(=O)N[C@H](CCC(N)=O)C(N)=O)C(C)C | Sh, DEL6-46 (Drosophila melanogaster, UniProt P08510) | ion current, blocker, inside-out patch clamp | Xenopus oocytes | range over 10 µM, pH 7.0, 22–24 °C, at 0 mV | Kd | 11.1 µM
CSCC[C@H](NC(=O)CNC(=O)[C@H](CCCNC(=N)N)NC(=O)[C@H](C)NC(=O)[C@@H](NC(=O)[C@H](CCC(N)=O)NC(=O)[C@H](Cc1ccc(OP(=O)(O)O)cc1)NC(=O)[C@H](C)NC(=O)[C@H](CS)NC(=O)[C@H](CO)NC(=O)[C@@H](NC(=O)[C@H](CC(C)C)NC(=O)[C@H](CC(=O)O)NC(=O)[C@H](CCCCN)NC(=O)[C@H](CO)NC(=O)[C@H](CO)NC(=O)c1ccc2c(c1)C(=O)OC21c2ccc(N(C)C)cc2Oc2cc(N(C)C)ccc21)C(C)C)C(C)C)C(=O)N[C@@H](CCC(=O)O)C(=O)N[C@@H](CC(=O)O)C(=O)O | Cytoplasmic protein NCK2, SH2 domain (NCK2, Homo sapiens, UniProt O43639) | binding |  |  | Kd | 0.727 µM
CSCC[C@H](NC=O)C(=O)N[C@@H](CCCNC(=N)N)C(=O)N[C@H](C(=O)NCC(=O)N[C@@H](CC(N)=O)C(=O)N[C@@H](C)C(=O)N[C@@H](CC(N)=O)C(=O)NCC(=O)NCC(=O)N[C@@H](CCCCNC(=S)Nc1ccc2c(c1)C(=O)OC21c2ccc(O)cc2Oc2cc(O)ccc21)C(=O)O)[C@@H](C)O | Uncharacterized protein YejA (yejA, Escherichia coli, UniProt P33913, D495A) | binding, fluorescence polarisation |  | YejA variant D477A | Kd | 32.1 ± 2.98 µM
C[C@@H](O)[C@@H]1NC(=O)[C@@H](NC(=O)CCOCCOCCOCCOCCNC(=O)c2ccc(NN)nc2)CSSC[C@@H](C(=O)O)NC(=O)[C@H](Cc2c[nH]cn2)NC(=O)[C@H](CO)NC(=O)[C@H](Cc2ccccc2)NC(=O)[C@@H]2CCCN2C(=O)[C@H](CO)NC(=O)[C@@H]2CCCN2C1=O [technetium-99m labelled] |  |  | mouse HCT-116 xenograft, stomach | intravenous, 37 MBq, postmortem after imaging | tissue uptake | 0.68 ± 0.34 %ID/g
CC[C@H](C)[C@H](NC(=O)[C@H](CCCCN)NC(=O)[C@H](C)NC(=O)[C@H](CCCNC(=N)N)NC(=O)[C@H](CCCCN)NC(=O)[C@H](CCC(N)=O)NC(=O)[C@H](CCC(N)=O)NC(=O)[C@H](CC(N)=O)NC(=O)[C@@H](NC(=O)[C@H](CC(C)C)NC(=O)[C@H](CC(N)=O)NC(=O)[C@@H]1CCCN1C(=O)[C@H](CC(=O)O)NC(=O)[C@H](CC(C)C)NC(=O)[C@H](C)NC(=O)[C@H](CS)NC(=O)[C@H](CCC(=O)O)NC(=O)[C@H](Cc1c[nH]c2ccccc12)NC(=O)[C@H](Cc1ccc(O)cc1)NC(=O)[C@H](CCCNC(=N)N)NC(=O)[C@H](CC(N)=O)NC(=O)[C@H](CCCNC(=N)N)NC(=O)[C@H](CCSC)NC(=O)[C@H](CCC(=O)O)NC(=O)[C@H](CCCCN)NC(=O)[C@H](CO)NC(=O)[C@H](Cc1ccccc1)NC(C)=O)[C@@H](C)O)C(=O)N[C@@H](CCCNC(=N)N)C(=O)N[C@@H](CO)C(=O)N[C@H](C(=O)N[C@@H](Cc1ccc(O)cc1)C(=O)N[C@@H](CCC(=O)O)C(=O)N[C@@H](CCC(=O)O)C(=O)NCC(=O)N[C@@H](CCC(=O)O)C(N)=O)[C@@H](C)CC | ERBB2 | binding, SPR |  |  | Kd | 0.019 µM
Cc1ccc(OC2CN(C)C2)cc1C(=O)N[C@H](C)c1cc(-c2cnn(C)c2)nc2ccccc12 | Vero E6 |  |  | 15.62 µM | viability | 97.4% and 97.2% and 98.2%
O=C1NC2(CC2)COc2ncc(F)cc2[C@H]2COCCN2c2ccn3ncc1c3n2 |  |  | Sprague-Dawley rat, male, thymus | oral, 5 mg/kg/day, 4 weeks, end of treatment | organ-to-brain weight ratio | 31.1 ± 6.08%
C=CC1CN(Cc2ccccn2)C(=O)C2CCCC1N2S(=O)(=NC)c1cc(Cl)cc(Cl)c1 (stereo not drawn) | uncharacterized protein, residues 23-253 (Pseudomonas aeruginosa, UniProt Q9HYX8) | binding, competitive fluorescence polarization |  | 30 min, protein 40 nM, together with: fluorescent tracer 1 nM | Kd | > 40 µM
COc1ccccc1C1(O)C(=O)Nc2ccc(F)cc21 (stereo not drawn) | Beta-lactamase (ampC, Escherichia coli K-12, UniProt P00811) |  |  |  | Kd | 2000 µM
CCCC[C@@H]1NC(=O)[C@H](Cc2ccc(O)cc2)NC(=O)[C@@H]2CCCN2C(=O)[C@H](CC(=O)O)NC(=O)[C@H](C)NC(=O)[C@H](Cc2ccccc2)NC(=O)[C@@H]2CSCCC(=O)N3CN(CN(C3)C(=O)CCSC[C@H](NC(C)=O)C(=O)N[C@@H]([C@@H](C)CC)C(=O)N[C@@H](CCC(=O)O)C(=O)N[C@@H](CCC(=O)O)C(=O)NCC(=O)N[C@@H](CCC(N)=O)C(=O)N[C@@H](Cc3ccc(O)cc3)C(=O)N2)C(=O)CCSC[C@@H](C(N)=O)NC1=O | Tumor necrosis factor receptor superfamily member 9 (Homo sapiens, UniProt Q07011) | binding, SPR |  |  | Kd | 0.00812 µM
CC(=O)N[C@@H](CO)C(=O)N[C@@H](Cc1ccccc1)C(=O)N[C@@H](CCC(=O)O)C(=O)N[C@@H](Cc1ccccc1Cl)C(=O)N1CCC[C@]12C=C[C@@H]1CC[C@@H](C(=O)N3CC[C@@H]4C=C[C@H]5CC[C@@H](C(=O)N[C@H](C(=O)N[C@@H](CCC(=O)O)C(=O)N[C@@H](CC(=O)O)C(=O)N[C@@H](CCC(=O)O)C(=O)N[C@@H](CC(C)C)C(N)=O)[C@@H](C)O)N5C(=O)[C@H]43)N1C2=O | VASP (Homo sapiens, UniProt P50552) | binding, fluorescence |  |  | Kd | 0.25 µM
CC[C@H](C)[C@H](NC(=O)[C@H](CCCCN)NC(=O)[C@H](C)NC(=O)[C@H](CCCNC(=N)N)NC(=O)[C@H](CCCCN)NC(=O)[C@H](CCC(N)=O)NC(=O)[C@H](CCC(N)=O)NC(=O)[C@H](CC(N)=O)NC(=O)[C@@H](NC(=O)[C@H](CC(C)C)NC(=O)[C@H](CC(N)=O)NC(=O)[C@@H]1CCCN1C(=O)[C@H](CS)NC(=O)[C@H](CC(C)C)NC(=O)[C@H](C)NC(=O)[C@H](C)NC(=O)[C@H](CCC(=O)O)NC(=O)[C@H](Cc1c[nH]c2ccccc12)NC(=O)[C@H](Cc1ccc(O)cc1)NC(=O)[C@H](CCCNC(=N)N)NC(=O)[C@H](CC(N)=O)NC(=O)[C@H](CCCNC(=N)N)NC(=O)[C@H](CCSC)NC(=O)[C@H](CCC(=O)O)NC(=O)[C@H](CCCCN)NC(=O)[C@H](CO)NC(=O)[C@H](Cc1ccccc1)NC(C)=O)[C@@H](C)O)C(=O)N[C@@H](CCCNC(=N)N)C(=O)N[C@@H](CO)C(=O)N[C@H](C(=O)N[C@@H](Cc1ccc(O)cc1)C(=O)N[C@@H](CCC(=O)O)C(=O)N[C@@H](CCC(=O)O)C(=O)NCC(=O)N[C@@H](CCC(=O)O)C(N)=O)[C@@H](C)CC | ERBB2 | binding, SPR |  |  | Kd | 0.047 µM
Cc1ccc(N2CCN(C)CC2)cc1C(=O)N[C@H](C)c1cc(-c2cnn(C)c2)nc2ccccc12 | African green monkey cells |  |  | 15.62 µM | viability | 95.4%
